Measured values gathered from unrelated publications.
A part holds a random share of what one study measured.

Series 1
Target: Histone acetyltransferase KAT6A, winged helix 2, GST fusion (KAT6A, Homo sapiens, UniProt Q92794, residues 85-181)
Method: protein binding microarray
Form: double-stranded DNA, one strand shown
Medium: in vitro
Concentration: not given
Notes: 8-mer, flanks averaged, mean of 2 arrays, mostly near background
Reference: not given
Reading: higher = stronger binding
Residues (chain): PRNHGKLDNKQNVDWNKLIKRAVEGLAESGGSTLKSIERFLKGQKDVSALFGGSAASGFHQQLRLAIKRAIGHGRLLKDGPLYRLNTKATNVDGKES
Sequence	E-score
AATAAGGC	-0.105
CACTTAGA	0.058
CACGACTG	-0.113
GTACGGAA	-0.164
AATTATGG	0.0694
CCATATCG	-0.075
AAGCCTAC	-0.0264
ATTAGCTC	0.125
ACCGATCG	-0.0215
AATGCTTG	-0.0471
CCGCACAC	0.0287
CTCGCTGC	0.0539
CTAGAACA	0.0748
TCTAAACA	-0.0572
GCAGTAAA	-0.0532
CCCCCTCG	0.165
ACCGCAGG	0.153

Series 2
Target: RNA binding protein fox-1 homolog 2, RRM domain, GST-SBP tag (RBFOX2, Homo sapiens, UniProt O43251-10, residues 100-194)
Method: RNA Bind-n-Seq
Form: RNA
Medium: in vitro
Concentration: 365 nM
Notes: natural RNA segment, single round, ends assumed
Reference: no-protein control
Reading: higher = stronger binding
Shared flanks, not repeated: GGGAGUUCUACAGUCCGACGAUC … UGGAAUUCUCGGGUGCCAA
Residues (chain): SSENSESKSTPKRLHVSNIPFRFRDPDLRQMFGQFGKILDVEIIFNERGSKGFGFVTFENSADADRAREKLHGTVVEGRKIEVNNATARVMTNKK
Sequence	RBNS enrichment (R)
GAUAAAAGCAUCUGCAGGUCCCUCCAAGACGAGAAGAGCAACAUCAUGCUCUUUGCUUCUGUCUAUGUGGAAAUCUCCGUUUGCAGCCAAAAUCUGGGGGCUGCCACUGU	0.399
GACAUUGAGGCCCAGCUGCCAAGUGAAAGUUGCACCAUGUUUCAGAACUCUUGCCCUCCCUCUCAUUCCCAUCCUUCCUGGUACUGCAGUCAACCAAAGAUGGCAUGACU	1.38
GUCCCUCUGUCCUACACGGUCACCACAGUGACGACCCAAGGCUUCCCCUUGCCUACAGGCCAGCACAUCCCUGGCUGCAGUGCCCAGCAGCUCCCAGCAUGCUCCGUGAU	5.38
CAAGUUUGCCCAUAGUCUUGAAUGCAAUAUUUGUUUAUUCCAAAAGAACAUAUUUAUAAUAAAAUCACUGUAGAAGGAUUUUUAAGAUGUUAGUGAAUUCUGUUUCUUUU	2.41
AUCAACUAUGUAGUUGAUUUUUUUUUGCCAGAAAUUAUAAGUAUUCUACAAUAAAUCUUUAAAUUUGAAAUUUUUUUUGUUUUAUUUGGGAAAAAAAUUGCAUCAUGCAG	1.53
CCAACUUUCUAGUCACGCUGUUCUGUAUUCAGUCAGCCCACAAGAAUAUGCAAACUCCAUCUCAAAACUACUGUCUUUCACCUUCCCAAAUCUCUAUCCUCGUGUGCUUC	0.867
UAGAGCUCCUGAGGUACUGUUCCAGUGAGGGGCAUUAUGAGAGGAGCGGGGCAGCCCAGGAGGUCUCAUACCCCACCCGUAAUCUGUACAGACUGAGAGGCCAGUUGAUC	0.22
AAUAGAGAAGGGUCCUGUGGAGUUCCAGGCCCUGGCUGCAAUGCUCCACACACACACACACCCCUCUUGCCCAGGUGGCCUCUUGUCCUCUGCUCUUGACUCUGCCAGCC	0.644
UUGGUUCAGAAACAAGUUGUAUAUUUUUCACCCCUGAUUAUGGGAAAAAAAUCAGUUCUGUCUUUGUGGGUUGCUCUACUAUGGAGAUCAACAGUUACUGUGACUGAGUC	0.315
CUUCCCGUGGCGCCGAUCCUCUGACUCUAUAGCGCCAGCUUGGACAGAUUGAGGUCUCUGUGGCUUUGGUGACCCUGCUUAAGCAUUCCCACCGUGUCCCUGUUCUGCGC	0.372
UAUUUCCUUUGGGAGUUUCCUCUUCAUGCAUUUUGUUCCUAGGGAAUAAAAAUAGCUGUUAGACCUGUGUCUGGCCUCUGUGUUCCUUCAAGUAACCACCCUAGAGGAGA	0.97
UGCUGGGAUAUUUUGAAUCCCCCAAGUUCCCUUGGACCUACUGAUGAGAGAUAGUUUUAUGUAUGGGGAAAAAUGGAUACUUUUUAAACCUUUUUUGGCAGCUCAGAUGG	0.889

Series 3
Target: Ras GTPase-activating protein-binding protein 1, C-terminal RGG region (G3BP1, Homo sapiens, UniProt Q13283)
Sequence of UniProt Q13283 (whole entry, looked up): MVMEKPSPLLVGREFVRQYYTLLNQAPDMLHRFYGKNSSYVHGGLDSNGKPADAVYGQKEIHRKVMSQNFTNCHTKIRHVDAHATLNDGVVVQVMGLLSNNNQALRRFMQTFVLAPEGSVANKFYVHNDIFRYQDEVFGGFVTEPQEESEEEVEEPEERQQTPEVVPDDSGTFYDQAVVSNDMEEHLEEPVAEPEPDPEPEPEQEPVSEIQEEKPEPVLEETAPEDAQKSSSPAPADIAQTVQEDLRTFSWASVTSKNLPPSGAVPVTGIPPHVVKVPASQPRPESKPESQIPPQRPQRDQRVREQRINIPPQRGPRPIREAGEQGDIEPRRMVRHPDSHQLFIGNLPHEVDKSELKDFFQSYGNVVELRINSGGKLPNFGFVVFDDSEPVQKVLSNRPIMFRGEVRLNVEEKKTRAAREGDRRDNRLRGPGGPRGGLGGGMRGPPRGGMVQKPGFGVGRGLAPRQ
Method: RNA Bind-n-Seq
Form: RNA
Medium: in vitro
Concentration: 1 µM
Notes: whole 134-nt RNA, ends assumed
Added: 150 mM KCl
Reference: input library
Reading: higher = stronger binding
Shared flanks, not repeated: GGGAGUUCUACAGUCCGACGAUC … UGGAAUUCUCGGGUGUCAAGG
Sequence	log2 enrichment
UCGCCCUGGUGGCAUGCGGGGAGGAAGAGGUGGCCUCAUGGAUCGUGGUGGUCCCGGUGGAAUGUUCAGAGGUGGCCGUGGUGGAGACAG	2.37
CACAGACAACACGCACCCACACAGACACAGAGGGAAGGGGUUGGGAUGCGGACAGGGUGCACAGCAGGGCGGGGUAGGACCCCAGCCCCU	0.33
UGGCCCUGGUGGCAUGCGGGGAGGAAGAGGUGGCCUCAUGGAUCGUGGUGGUCCCGGUGGAAUGUUCAGAGGUGGCCGUGGUGGAGCCAG	3.48
CUGUGCUACACAUCGUAUGUACCGAAUCGGGGAAAAAAAGGGGAAAAAAAGGGAAAAAAAGGAAAGUAUUAUGUUACGCCGUUCGGAUCU	-1.23
CACAGACAACACGCACCCACACAGACACAGAGGGAAGGGGUUGGGAUGGGGACAGGGUGCACAGCAGGGCGGGGUAGGAAACCAGCCCCU	-0.102
AGUCCUGUGCUACACAUCGUAUGUACCGAAUCGGUUUUUGGGUUUUUGGUUUUUGGGAAAGUAUUAUGUUACGCCGUUCGGAUCUGCACU	-1.5
CAAGUCCUGUGCUACACAUCGUAUGUACCGAAUCGGGAAAAAGGGUUUGGGUGGGAAAGUAUUAUGUUACGCCGUUCGGAUCUGCACUUC	2.01
UGGGAGGUCGAUUUUGUUUAUUUUUUUAGCUCAUUUCCAGGGGUGGGAAUUUUUUUUUAAUAUGUGUCAUGAAUAAAGUUGUUUUUGAAA	2.67
CCUCAAGUCCUGUGCUACACAUCGUAUGUACCGAAUCGGGCGGCGGGGCGGGGAAAGUAUUAUGUUACGCCGUUCGGAUCUGCACUUCCA	0.813
UUUCUCCACAGGAGCCCCGCAAGUGAGCCAGCCACUGCGAGAGCAGAGUGAGGAUAUACCUGGAGCCAUUUCCUCUGCCCUGGCAGCCAU	0.0631
UAACUUUAGAGGAGGAUCUGAUGGAUAUGGCAGUGGACGUGGAUUUGGGGAUGGCUAUAAUGGGUAUGGAGCAGGACCUGGAGGUGGCAA	-0.67
UAACUUUAGAGGAGGAUCUGAUGGAUAUGGCAGUGGAGGUGGAUUUGGGGAUGGCUAUAAUGGGUAUGGAGGAGGACCUGGAGGUGGCAA	-0.858
UGGGAGGUGGAUUUUGUUUAUUUUUUUAGCUCAUUUCCAGGGGUGGUAAUUUUUUUUUAAUAUGUGUCAUGAAUAAAGUUGUUUUUGAAA	2.67
GUCCUGUGCUACACAUCGUAUGUACCGAAUCGGGAAAAAAGGAAAAAAGGAAAAAAGGGAAAGUAUUAUGUUACGCCGUUCGGAUCUGCA	-1.83

Series 4
Target: Interferon regulatory factor 7, full length, phosphomimetic (IRF7, Homo sapiens, UniProt Q92985, residues 1-503, S471D/S472D/S475D/S476D/S477D/S483D/S484D/S487D)
Method: protein-binding microarray
Form: double-stranded DNA, one strand shown
Medium: in vitro
Concentration: 2200 nM top
Notes: 60-bp whole probe
Added: salmon DNA 0.4 mg/ml
Reference: random background probes
Reading: higher = stronger binding
Shared flanks, not repeated: GCCTAGCAC … GTCTTGATTCGCTTGACGCTGCTG
Construct (chain): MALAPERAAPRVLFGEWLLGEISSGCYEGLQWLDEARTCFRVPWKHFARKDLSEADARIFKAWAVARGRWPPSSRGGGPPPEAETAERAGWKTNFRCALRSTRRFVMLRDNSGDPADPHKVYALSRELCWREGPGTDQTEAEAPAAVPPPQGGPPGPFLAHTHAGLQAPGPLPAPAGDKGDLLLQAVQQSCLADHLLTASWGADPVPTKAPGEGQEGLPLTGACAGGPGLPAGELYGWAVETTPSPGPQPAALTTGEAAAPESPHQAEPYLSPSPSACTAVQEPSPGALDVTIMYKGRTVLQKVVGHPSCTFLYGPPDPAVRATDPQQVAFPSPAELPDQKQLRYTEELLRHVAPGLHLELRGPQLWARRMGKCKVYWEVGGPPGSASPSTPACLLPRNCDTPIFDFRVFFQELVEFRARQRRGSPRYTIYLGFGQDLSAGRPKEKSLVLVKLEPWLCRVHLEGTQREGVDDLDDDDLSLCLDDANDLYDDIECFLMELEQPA
Sequence	fitted relative affinity [z-score]
GGCGATTCCAGTTTCGAGACGTGCTAG	3.55
GCTCTCTTCTGCTTCCTCAGGTGCTAG	2.16
GCAGGAGAGACAGAAGTTATGTGCTAG	-1.05
GACGGTCTGGGGTTTCGGGACGTGCTA	0.464
CTAGGTATCGGTATCGGTTAGTGCTAG	1.02
CTGTGTACATCTCTCTTAAAGTGCTAG	0.854
TCAGTCCTCCTGACTGGGACTGTGCTA	0.283
TCACTTTCCTTTATGTAACTGTGCTAG	5.53
TCTGATTTCTCAAACAGCTCGTGCTAG	1.21
GACGATATCGGGTATCAAGACGTGCTA	-0.0557
TCAGGTTGAACATGAACACTGTGCTAG	0.219
TCAGGTTTCGACTTTCGGTTAGTGCTA	11
TTAGATTTCTGTTTCGATTAGTGCTAG	6.33
TTAGGTTTCCTTTCGCTTTAGTGCTAG	8.49
GACGGACTGCTTCTCGTGACGTGCTAG	0.238
GACGGTCCCGGTATCGGGACGTGCTAG	-0.351
GACAAACTGGGGTTTCGAGACGTGCTA	1.37
TCATTTTGCTTTCTTTAACTGTGCTAG	3.75
AGTATGTTCCCTATTTAAGGGTGCTAG	0.933
TTAGATATCGGGTTTCGATTAGTGCTA	2.75
TAAGGTATCGACACTGGGTTAGTGCTA	-0.348
TCAGTTTTACAATTTGCACTGTGCTAG	1.55
TTAGGTTTCGGACTGCGTTAGTGCTAG	3.62
TTTGGACTGCTTCTCCTTTAGTGCTAG	1.13
GACGGTTTCGGGCTTCGGGACGTGCTA	3.6

Excerpt of the above (series 4):
Sequence	fitted relative affinity [z-score]
TTAGATATCGGGTTTCGATTAGTGCTA	2.75
TCAGTCCTCCTGACTGGGACTGTGCTA	0.283
TCATTTTGCTTTCTTTAACTGTGCTAG	3.75
GACGGTCTGGGGTTTCGGGACGTGCTA	0.464
TAAGGTATCGACACTGGGTTAGTGCTA	-0.348
CTAGGTATCGGTATCGGTTAGTGCTAG	1.02
TTAGATTTCTGTTTCGATTAGTGCTAG	6.33
GGCGATTCCAGTTTCGAGACGTGCTAG	3.55
